Literature values, collected from citations in different studies.
Protocols differ between the studies behind these lines. Converted amounts (≈) assume the structure as drawn.

Molecule	target or system	test	system	setting	scale	quantity	value
CN[C@H](CC(C)C)C(=O)N[C@H]1C(=O)N[C@@H](CC(N)=O)C(=O)N[C@H]2C(=O)N[C@H]3C(=O)N[C@H](C(=O)N[C@H](C(=O)O)c4cc(O)cc(O)c4-c4cc3ccc4O)[C@H](O)c3ccc(c(Cl)c3)Oc3cc2cc(c3O[C@@H]2O[C@H](CO)[C@@H](O)[C@H](O)[C@H]2O[C@H]2C[C@](C)(N)[C@H](O)[C@H](C)O2)Oc2ccc(cc2Cl)[C@H]1O	Staphylococcus aureus		clinical isolates			MIC	1 to 3 µM (≈ 1.45 to 4.35 µg/mL)
O=C1CN=C(c2ccccc2Cl)c2cc([N+](=O)[O-])ccc2N1			supercritical CO2			crossover pressure	140 to 170 bar
CCCCC1(C2CCCC2)Cc2cc(OCCCC(=O)O)c(Cl)c(Cl)c2C1=O (centres unmarked)						logP	6.8
O=C(O)[C@H](c1ccccc1)[C@H]1CCCCN1			human, by CES1 genotype, plasma	oral, 10 mg methylphenidate, single dose, median		Cmax	70.5 ng/mL
Cc1cc(C)c(CNC(=O)c2cc(Cl)c3c(c2C)O[C@@](C)([C@H]2CC[C@H](N(C)C)CC2)O3)c(=O)[nH]1	CYP3A4 (human)	inhibitor	human liver microsomes	together with: midazolam		Ki	56.4 µM
COC(=O)[C@H](c1ccccc1)[C@H]1CCCCN1			human, by CES1 genotype, plasma	oral, 10 mg methylphenidate, single dose, median		Tmax	1.8 h
LPYPQPQL	HLA class I histocompatibility antigen, B alpha chain, allele B*51:01 (Homo sapiens, UniProt P01889)	peptide-MHC binding	peptide			IC50	0.0323 µM
CC(C)CCCCCCCCC[C@@H]1CC(=O)N[C@@H](CCC(=O)O)C(=O)N[C@@H](CC(C)C)C(=O)N[C@H](CC(C)C)C(=O)N[C@@H](C(C)C)C(=O)N[C@@H](CC(=O)O)C(=O)N[C@H](CC(C)C)C(=O)N[C@@H](CC(C)C)C(=O)O1	transmissible gastroenteritis virus		epithelial cells		range over	antiviral concentration range	15 to 50 µg/mL

For quick reference, copied from above:
Molecule	target or system	test	system	setting	scale	quantity	value
O=C1CN=C(c2ccccc2Cl)c2cc([N+](=O)[O-])ccc2N1			supercritical CO2			crossover pressure	140 to 170 bar
